Measurements of several laboratories.
Protocols differ between the studies behind these lines. Numbers after ± are the reported error.

Compound	system	setting	tissue uptake
CN(C)c1ccc(-c2nc3ccc(OCCCCCN4CCN5CCN(CC4)CC(=O)[O][Al]([18F])[O]C(=O)C5)cc3s2)cc1	ICR mouse, muscle	intravenous, 10 min	2.96 ± 0.69 %ID/g
CCCC[C@H](NC(=O)CNC(=O)CNC(=O)CN1CCN(CC(=O)O)CCN(CC(=O)O)CCN(CC(=O)O)CC1)C(=O)N[C@H]1CC(=O)NCCCC[C@@H](C(N)=O)NC(=O)[C@H](Cc2c[nH]c3ccccc23)NC(=O)[C@H](CCCNC(=N)N)NC(=O)[C@@H](Cc2ccccc2)NC(=O)[C@H](Cc2c[nH]cn2)NC1=O [copper-64 labelled]	female C57 mouse, B16/F1 melanoma, spleen	intravenous, 0.037 MBq, 24 h	2.87 ± 1 %ID/g
CCCC[C@H](NC(=O)CNC(=O)CNC(=O)CN1CCN(CC(=O)O)CCN(CC(=O)O)CCN(CC(=O)O)CC1)C(=O)N[C@H]1CC(=O)NCCCC[C@@H](C(N)=O)NC(=O)[C@H](Cc2c[nH]c3ccccc23)NC(=O)[C@H](CCCNC(=N)N)NC(=O)[C@@H](Cc2ccccc2)NC(=O)[C@H](Cc2c[nH]cn2)NC1=O [lead-203 labelled]	C57 mouse, liver	intravenous, 0.056 MBq, 2 h	1.03 ± 0.13 %ID/g
CN1C(=O)[C@@H](Cc2ccc(O)c(I)c2)NC(=O)CNC(=O)[C@H](Cc2ccc3ccccc3c2)NC(=O)[C@H](CCCNC(=N)N)NC(=O)[C@H]1CCCNC(=O)c1ccc(CNC(=O)CN2CCN(CC(=O)O)CCN(CC(=O)O)CCN(CC(=O)O)CC2)cc1 [lutetium-177 labelled]	female CB-17 SCID mouse, Daudi xenograft, blood	intravenous, 6 h, CXCR4 blocking, added: AMD3100 2 mg/kg coinjected	0.06 ± 0.01 %ID/g
CC(C)[C@H](NC(=O)[C@@H]1CCCN1C(=O)[C@H](CCCNC(=N)N)NC(=O)[C@H](CS)NC(=O)[C@H](Cc1c[nH]c2ccccc12)NC(=O)[C@H](CCCNC(=N)N)NC(=O)[C@@H](Cc1ccccc1)NC(=O)[C@H](Cc1c[nH]cn1)NC(=O)[C@H](CCC(=O)O)NC(=O)[C@H](CS)NC(=O)[C@H](CS)NC(=O)[C@@H]1CC(=O)N[C@@H](CCCNC(=N)N)C(=O)NCC(=O)N[C@@H](CC(=O)O)C(=O)N[C@H](Cc2ccc(O)cc2)C(=O)N1)C(N)=O [technetium-99m labelled]	C57 mouse, female, B16/F1 melanoma, lung	intravenous, 0.037 MBq, 2 h	1.54 ± 0.2 %ID/g
O=C([O-])CN1CCN(CC(=O)[O-])CCN(CC(=O)NCCc2ccc3c(c2)C2C=CCC2C(c2cc4c(cc2Br)OCO4)N3)CCN(CC(=O)[O-])CC1.[111In+3] (centres unmarked)	mouse, Hec50 endometrial tumour, liver	1 h post injection	12 ± 1.43 %ID/g
CCCC[C@H](NC(=O)CNC(=O)CNC(=O)CN1CCN(CC(=O)O)CCN(CC(=O)O)CC1)C(=O)N[C@H]1CC(=O)NCCCC[C@@H](C(N)=O)NC(=O)[C@H](Cc2c[nH]c3ccccc23)NC(=O)[C@H](CCCNC(=N)N)NC(=O)[C@@H](Cc2ccccc2)NC(=O)[C@H](Cc2c[nH]cn2)NC1=O [copper-64 labelled]	C57 mouse female B16/F1 melanoma, intestines	intravenous, 0.037 MBq, 0.5 h	1.27 ± 0.11 %ID
CC(C)[C@H](NC(=O)[C@@H]1CCCN1C(=O)[C@H](CCCNC(=N)N)NC(=O)[C@H](CS)NC(=O)[C@H](Cc1c[nH]c2ccccc12)NC(=O)[C@H](CCCNC(=N)N)NC(=O)[C@@H](Cc1ccccc1)NC(=O)[C@H](Cc1c[nH]cn1)NC(=O)[C@H](CCC(=O)O)NC(=O)[C@H](CS)NC(=O)[C@H](CS)NC(=O)CNC(=O)[C@@H]1CC(=O)N[C@@H](CCCNC(=N)N)C(=O)NCC(=O)N[C@@H](CC(=O)O)C(=O)N[C@H](Cc2ccc(O)cc2)C(=O)N1)C(N)=O [technetium-99m labelled]	C57 mouse, female, B16/F1 melanoma, blood	intravenous, 0.037 MBq, 2 h	0.7 ± 0.47 %ID/g

For quick reference, copied from above:
Compound	system	setting	tissue uptake
CCCC[C@H](NC(=O)CNC(=O)CNC(=O)CN1CCN(CC(=O)O)CCN(CC(=O)O)CC1)C(=O)N[C@H]1CC(=O)NCCCC[C@@H](C(N)=O)NC(=O)[C@H](Cc2c[nH]c3ccccc23)NC(=O)[C@H](CCCNC(=N)N)NC(=O)[C@@H](Cc2ccccc2)NC(=O)[C@H](Cc2c[nH]cn2)NC1=O [copper-64 labelled]	C57 mouse female B16/F1 melanoma, intestines	intravenous, 0.037 MBq, 0.5 h	1.27 ± 0.11 %ID
